Literature values that unrelated publications cite.
Chain of UniProt Q8TBX8 (whole entry, looked up): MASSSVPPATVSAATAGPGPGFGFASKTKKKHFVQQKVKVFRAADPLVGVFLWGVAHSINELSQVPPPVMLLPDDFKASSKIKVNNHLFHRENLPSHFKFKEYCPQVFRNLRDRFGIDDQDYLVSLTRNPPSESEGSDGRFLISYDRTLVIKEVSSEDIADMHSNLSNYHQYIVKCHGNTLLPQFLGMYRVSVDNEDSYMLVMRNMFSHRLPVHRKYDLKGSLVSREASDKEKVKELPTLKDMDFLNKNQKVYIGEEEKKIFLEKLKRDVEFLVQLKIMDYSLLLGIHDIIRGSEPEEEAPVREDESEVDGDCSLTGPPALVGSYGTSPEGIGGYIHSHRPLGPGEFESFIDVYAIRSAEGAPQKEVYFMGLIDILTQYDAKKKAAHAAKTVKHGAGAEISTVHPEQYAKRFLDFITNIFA

OC(Cn1cncn1)(Cn1cncn1)c1ccc(F)cc1F
AUC (human; oral, 100 mg single dose): 65700 ng·h/mL

C[C@@H](Oc1ccc(S(C)(=O)=O)cc1C(=O)N1C[C@@H]2C[C@]2(c2cc(C(F)(F)F)on2)C1)C(F)(F)F
AUC increase with food (human; oral, dose not given, tablet; relative to: fasted): 25%

Cn1c(=O)oc2ccc(-c3ccc(C[C@@H](C#N)NC(=O)[C@@H]4CNCCCO4)cc3)cc21
AUC and Cmax (human; dose not given, together with: moderate or strong CYP3A4/P-gp inhibitor): increased

C[C@@H](Oc1ccc(S(C)(=O)=O)cc1C(=O)N1C[C@@H]2C[C@]2(c2cc(C(F)(F)F)on2)C1)C(F)(F)F
AUC increase (human; oral, 25 mg single dose, together with: Meal, high-fat, ~1000 kcal; relative to: fasted state): 26%

Nc1cc(C(F)(F)F)c(-c2nc(N3CCOCC3)nc(N3CCOCC3)n2)cn1
remaining activity (PIP4K2C (Homo sapiens, UniProt Q8TBX8); enzyme activity; 10 µM; relative to: untreated): 96%

OC(Cn1cncn1)(Cn1cncn1)c1ccc(F)cc1F
AUC increase (perpetrator, refers to: fluvastatin; human; dose not given; relative to: without compound): 84%

COc1ccc2nc([S@@+]([O-])Cc3ncc(C)c(OC)c3C)[nH]c2c1
AUC (Japanese non-obese humans; intravenous bolus, 20 mg racemic omeprazole): 390 ng⋅h/mL

N[C@@H]1c2cccnc2[C@H](OC(=O)N2CCC(n3c(=O)[nH]c4ncccc43)CC2)CC[C@H]1c1cccc(F)c1F
AUC ratio (human, severe hepatic impairment; oral, 75 mg; relative to: normal hepatic function): 2 fold

CC1(C)S[C@@H]2[C@H](NC(=O)[C@H](N)c3ccccc3)C(=O)N2[C@H]1C(=O)O
MIC (Acinetobacter baumannii; clinical isolate RKI-No_70/16): > 16 µg/mL

C1=C/COCc2cc(ccc2OCCN2CCCC2)Nc2nccc(n2)-c2cccc(c2)COC/1
AUC decrease (human; dose not given, together with: rifampicin; relative to: without rifampicin): 90%

COc1cc(Nc2c(C#N)cnc3cc(OCCCN4CCN(C)CC4)c(OC)cc23)c(Cl)cc1Cl
AUC (human; 500 mg): 3660 ng·h/mL

COc1cc2nccc(Oc3ccc(NC(=O)C4(C(=O)Nc5ccc(F)cc5)CC4)cc3)c2cc1OC
AUC increase (human; dose not given, high-fat breakfast; relative to: fasted): 57%

CNC(C)C1CCC(N)C(OC2C(N)CC(N)C(OC3OCC(C)(O)C(NC)C3O)C2O)O1 (stereo not shown)
MIC (Acinetobacter baumannii; clinical isolate RKI-No_12/16): > 8 µg/mL

CC(C)NC(=O)COc1cccc(-c2nc(Nc3ccc4[nH]ncc4c3)c3ccccc3n2)c1
AUC decrease (healthy human subjects; dose not given, together with: rifampin (strong CYP3A4 inducer)): 72%

O=C(O)C[C@H](O)C[C@H](O)/C=C/c1c(C2CC2)nc2ccccc2c1-c1ccc(F)cc1
AUC increase (healthy human volunteers; dose not given, together with: rifampicin; relative to: without rifampicin): 5.7 fold

O=C(c1cc(Cc2n[nH]c(=O)c3ccccc23)ccc1F)N1CCN(C(=O)C2CC2)CC1
AUC at steady state (human; oral, dose not given, tablet): 58000 ng·h/mL

Excerpt of the above:
N[C@@H]1c2cccnc2[C@H](OC(=O)N2CCC(n3c(=O)[nH]c4ncccc43)CC2)CC[C@H]1c1cccc(F)c1F
AUC ratio (human, severe hepatic impairment; oral, 75 mg; relative to: normal hepatic function): 2 fold
